Experimental data pooled from the literature.
A part holds a random share of what one study measured.
Sequence of UniProt P10721 (whole entry, unmodified, looked up): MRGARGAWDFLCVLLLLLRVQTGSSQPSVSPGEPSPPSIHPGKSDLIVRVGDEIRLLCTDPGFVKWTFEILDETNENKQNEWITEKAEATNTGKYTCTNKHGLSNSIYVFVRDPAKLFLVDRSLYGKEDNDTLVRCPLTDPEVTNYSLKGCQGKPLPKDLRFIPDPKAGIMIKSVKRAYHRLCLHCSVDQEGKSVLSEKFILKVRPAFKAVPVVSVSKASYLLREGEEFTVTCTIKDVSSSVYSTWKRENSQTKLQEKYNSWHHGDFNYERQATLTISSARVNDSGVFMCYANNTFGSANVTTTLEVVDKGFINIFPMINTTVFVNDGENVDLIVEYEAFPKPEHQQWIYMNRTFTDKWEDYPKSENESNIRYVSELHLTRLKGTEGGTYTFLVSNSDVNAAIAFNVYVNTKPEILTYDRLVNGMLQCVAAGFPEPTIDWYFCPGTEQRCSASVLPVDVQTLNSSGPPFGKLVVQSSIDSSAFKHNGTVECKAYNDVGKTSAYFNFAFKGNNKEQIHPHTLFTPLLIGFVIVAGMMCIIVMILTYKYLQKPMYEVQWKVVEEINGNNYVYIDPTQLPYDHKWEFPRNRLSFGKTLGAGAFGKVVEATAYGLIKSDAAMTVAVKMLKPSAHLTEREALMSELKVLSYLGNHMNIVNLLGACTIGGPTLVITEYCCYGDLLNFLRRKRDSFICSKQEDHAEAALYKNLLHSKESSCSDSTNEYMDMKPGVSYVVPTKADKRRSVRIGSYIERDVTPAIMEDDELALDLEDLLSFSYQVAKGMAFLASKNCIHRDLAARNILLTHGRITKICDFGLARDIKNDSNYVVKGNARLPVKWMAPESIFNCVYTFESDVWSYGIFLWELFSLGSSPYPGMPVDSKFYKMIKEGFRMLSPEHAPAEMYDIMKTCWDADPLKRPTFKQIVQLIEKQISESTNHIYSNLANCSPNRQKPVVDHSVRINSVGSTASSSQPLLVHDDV
Sequence of UniProt Q9NRM7 (whole entry, looked up): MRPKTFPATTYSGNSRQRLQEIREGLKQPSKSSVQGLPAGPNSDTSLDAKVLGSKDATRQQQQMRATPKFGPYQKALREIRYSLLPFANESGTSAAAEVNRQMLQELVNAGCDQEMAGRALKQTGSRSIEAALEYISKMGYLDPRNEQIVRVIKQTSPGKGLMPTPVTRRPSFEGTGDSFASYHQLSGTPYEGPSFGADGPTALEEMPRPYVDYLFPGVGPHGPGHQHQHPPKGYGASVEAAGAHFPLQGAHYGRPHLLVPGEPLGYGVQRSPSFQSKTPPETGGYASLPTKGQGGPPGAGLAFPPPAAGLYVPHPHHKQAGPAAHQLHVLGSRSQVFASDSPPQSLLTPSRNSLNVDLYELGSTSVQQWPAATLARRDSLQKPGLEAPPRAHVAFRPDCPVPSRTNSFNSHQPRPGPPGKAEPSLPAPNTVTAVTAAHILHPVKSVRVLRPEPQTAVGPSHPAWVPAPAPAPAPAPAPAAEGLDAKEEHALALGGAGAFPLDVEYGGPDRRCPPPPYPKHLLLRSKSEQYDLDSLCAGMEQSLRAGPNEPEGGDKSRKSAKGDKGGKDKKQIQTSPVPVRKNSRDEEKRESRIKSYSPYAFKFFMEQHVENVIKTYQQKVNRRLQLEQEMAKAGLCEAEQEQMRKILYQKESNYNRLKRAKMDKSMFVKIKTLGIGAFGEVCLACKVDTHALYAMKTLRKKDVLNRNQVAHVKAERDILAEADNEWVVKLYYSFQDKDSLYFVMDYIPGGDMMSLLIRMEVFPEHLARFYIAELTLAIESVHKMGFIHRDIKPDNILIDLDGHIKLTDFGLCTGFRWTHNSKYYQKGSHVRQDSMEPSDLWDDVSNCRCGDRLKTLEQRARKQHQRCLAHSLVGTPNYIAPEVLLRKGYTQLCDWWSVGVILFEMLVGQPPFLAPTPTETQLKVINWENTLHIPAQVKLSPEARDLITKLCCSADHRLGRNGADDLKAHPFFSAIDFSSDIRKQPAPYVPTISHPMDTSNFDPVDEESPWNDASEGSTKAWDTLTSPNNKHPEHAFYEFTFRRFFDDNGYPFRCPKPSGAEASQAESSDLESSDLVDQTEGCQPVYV
Sequence of UniProt O00750 (whole entry, looked up): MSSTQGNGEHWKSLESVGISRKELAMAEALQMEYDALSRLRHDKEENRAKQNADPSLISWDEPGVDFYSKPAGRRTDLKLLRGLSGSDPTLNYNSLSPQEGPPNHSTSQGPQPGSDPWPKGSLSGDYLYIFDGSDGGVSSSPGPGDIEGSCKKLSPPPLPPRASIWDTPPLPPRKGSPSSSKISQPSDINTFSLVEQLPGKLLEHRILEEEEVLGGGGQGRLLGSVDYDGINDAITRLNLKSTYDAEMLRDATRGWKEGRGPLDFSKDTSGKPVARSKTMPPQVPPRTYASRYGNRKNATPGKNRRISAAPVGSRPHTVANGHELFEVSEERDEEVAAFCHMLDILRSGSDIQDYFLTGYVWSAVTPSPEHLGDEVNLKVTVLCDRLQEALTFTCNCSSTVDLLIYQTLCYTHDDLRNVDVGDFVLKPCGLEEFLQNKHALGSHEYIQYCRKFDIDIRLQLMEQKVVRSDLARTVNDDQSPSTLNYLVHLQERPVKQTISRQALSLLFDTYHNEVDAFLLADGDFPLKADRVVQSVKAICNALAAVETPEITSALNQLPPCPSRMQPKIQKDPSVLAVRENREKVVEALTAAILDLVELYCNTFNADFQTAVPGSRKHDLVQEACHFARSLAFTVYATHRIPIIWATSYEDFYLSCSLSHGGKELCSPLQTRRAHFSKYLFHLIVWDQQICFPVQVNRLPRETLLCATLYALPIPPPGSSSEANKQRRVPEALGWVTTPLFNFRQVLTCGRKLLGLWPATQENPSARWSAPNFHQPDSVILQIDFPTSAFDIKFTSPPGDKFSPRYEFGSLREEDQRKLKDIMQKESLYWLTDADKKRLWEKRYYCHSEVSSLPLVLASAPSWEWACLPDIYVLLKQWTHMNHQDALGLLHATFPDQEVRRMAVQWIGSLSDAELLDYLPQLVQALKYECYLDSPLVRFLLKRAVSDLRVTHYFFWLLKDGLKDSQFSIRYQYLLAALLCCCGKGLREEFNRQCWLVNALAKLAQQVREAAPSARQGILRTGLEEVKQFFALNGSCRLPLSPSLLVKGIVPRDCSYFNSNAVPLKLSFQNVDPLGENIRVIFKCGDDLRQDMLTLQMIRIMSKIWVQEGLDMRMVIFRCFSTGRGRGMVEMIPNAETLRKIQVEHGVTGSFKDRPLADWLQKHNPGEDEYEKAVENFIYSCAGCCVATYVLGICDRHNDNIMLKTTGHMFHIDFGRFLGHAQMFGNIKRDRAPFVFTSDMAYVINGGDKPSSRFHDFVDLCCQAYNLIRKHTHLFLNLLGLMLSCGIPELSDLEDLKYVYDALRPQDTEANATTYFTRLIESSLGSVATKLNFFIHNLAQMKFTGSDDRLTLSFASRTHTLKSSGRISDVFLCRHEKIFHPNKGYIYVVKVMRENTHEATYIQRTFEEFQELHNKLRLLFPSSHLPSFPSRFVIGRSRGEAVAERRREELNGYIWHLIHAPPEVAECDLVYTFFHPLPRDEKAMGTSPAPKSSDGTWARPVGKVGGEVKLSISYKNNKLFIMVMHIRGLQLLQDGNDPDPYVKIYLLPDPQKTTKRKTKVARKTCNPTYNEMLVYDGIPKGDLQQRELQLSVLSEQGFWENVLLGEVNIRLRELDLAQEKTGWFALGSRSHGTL

Sample 1
Target: Eukaryotic initiation factor 4A-I (EIF4A1, Homo sapiens, UniProt P60842)
Sequence of UniProt P60842 (whole entry, looked up): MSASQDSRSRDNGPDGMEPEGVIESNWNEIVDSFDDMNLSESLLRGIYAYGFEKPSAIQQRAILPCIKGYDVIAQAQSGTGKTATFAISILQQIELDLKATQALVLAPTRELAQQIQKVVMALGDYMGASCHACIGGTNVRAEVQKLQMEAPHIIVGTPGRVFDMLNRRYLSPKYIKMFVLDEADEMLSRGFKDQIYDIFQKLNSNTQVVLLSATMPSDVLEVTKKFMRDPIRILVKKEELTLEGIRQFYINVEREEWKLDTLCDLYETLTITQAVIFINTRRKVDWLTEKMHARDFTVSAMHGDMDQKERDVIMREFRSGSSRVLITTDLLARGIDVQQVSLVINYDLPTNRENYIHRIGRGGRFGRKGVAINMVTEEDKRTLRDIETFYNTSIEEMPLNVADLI
Observed: RNA clamping
Method: fluorescence polarization
Tested at: concentration not given
Added: FAM-labelled poly r(AG)8 RNA
Reading: higher = more clamping
Quantity: fluorescence polarization change
COC(=O)[C@H]1C(=O)[C@@]2(NCc3cccnc3)c3c(OC)cc(OC)cc3O[C@@]2(c2ccc(OC)cc2)[C@@H]1c1ccccc1: -9.1 mP
COC(=O)/C=C/Cn1c(-c2ccccc2)nc2c(c1=O)[C@@H](c1ccccc1)[C@]1(c3ccc(OC)cc3)Oc3cc(OC)cc(OC)c3[C@]21O: 9.1 mP
COC(=O)[C@H]1C(=O)[C@@]2(NCc3ccccc3)c3c(OC)cc(OC)cc3O[C@@]2(c2ccc(OC)cc2)[C@@H]1c1ccccc1: -3.3 mP
COC(=O)[C@@H]1[C@@H](c2ccccc2)[C@]2(c3ccc(OC)cc3)Oc3cc(OC)cc(OC)c3[C@@]23NC(C(F)(F)F)=N[C@@]13O: 30.7 mP
COc1ccc([C@H]2[C@H](C(=O)N(C)C)[C@@H](O)[C@@]3(O)c4c(OC)cc(OC)cc4O[C@@]23c2ccc(OC)cc2)cc1: 7 mP
COc1ccc([C@@]23Oc4cc(OC)cc(OC)c4[C@]2(O)[C@H](O)[C@H](CN(C)C)[C@H]3c2ccccc2)cc1: 70.7 mP

Sample 2
Organism: Plasmodium berghei
Mode: inhibitor
Cell line: Huh-7
Strain: GFP-expressing, liver stage
Tested at: 10 µM
Time: 24 h
Baseline: untreated control
Quantity: infection rate
CC1(C)S[C@@H]2[C@H](NC(=O)Cc3ccccc3)C(=O)N2[C@H]1C(=O)O: 100%
C1CNCCN1: 100%
COc1cc(C(=O)N2CCOCC2)cc(OC)c1OC: 119%
O=C(O)CCC(=O)Nc1ccc(S(=O)(=O)Nc2nccs2)cc1: 119%
COC(=O)[C@@H]1[C@H]2C[C@H]3c4[nH]c5ccccc5c4CCN3C[C@@H]2CC[C@@H]1O: 87.8%
NC[C@@H]1O[C@H](O[C@H]2[C@@H](O)[C@H](O[C@@H]3[C@@H](O)[C@H](N)C[C@H](N)[C@H]3O[C@H]3O[C@H](CO)[C@@H](O)[C@H](O)[C@H]3N)O[C@@H]2CO)[C@H](N)[C@@H](O)[C@@H]1O: 102%
CNCCCC1c2ccccc2C=Cc2ccccc21: 86.3%
c1ccc2c(c1)CCCC2C1=NCCN1 (stereo not shown): 97.7%
CC(C)(Sc1cc(C(C)(C)C)c(O)c(C(C)(C)C)c1)Sc1cc(C(C)(C)C)c(O)c(C(C)(C)C)c1: 81.1%
CC1(C)S[C@@H]2[C@H](NC(=O)[C@H](C(=O)O)c3ccsc3)C(=O)N2[C@H]1C(=O)O: 36.3%

Sample 3
Target: Receptor-interacting serine/threonine-protein kinase 2 (RIPK2, Homo sapiens, UniProt O43353)
Sequence of UniProt O43353 (whole entry, looked up): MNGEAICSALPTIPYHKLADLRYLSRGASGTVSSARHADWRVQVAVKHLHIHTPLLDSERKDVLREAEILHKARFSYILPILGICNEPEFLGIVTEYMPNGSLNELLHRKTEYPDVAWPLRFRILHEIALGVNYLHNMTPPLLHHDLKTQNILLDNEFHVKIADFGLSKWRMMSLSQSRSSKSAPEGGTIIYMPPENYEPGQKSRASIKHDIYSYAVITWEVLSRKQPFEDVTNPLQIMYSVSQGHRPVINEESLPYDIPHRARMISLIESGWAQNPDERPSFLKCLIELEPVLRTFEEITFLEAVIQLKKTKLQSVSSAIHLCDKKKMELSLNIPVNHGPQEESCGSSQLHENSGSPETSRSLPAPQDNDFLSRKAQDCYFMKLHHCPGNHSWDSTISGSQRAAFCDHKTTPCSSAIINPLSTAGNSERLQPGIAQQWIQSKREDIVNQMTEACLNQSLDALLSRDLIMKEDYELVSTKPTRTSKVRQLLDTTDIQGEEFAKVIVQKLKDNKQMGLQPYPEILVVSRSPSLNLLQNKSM
Observed: enzyme activity
Mode: inhibitor
Tested at: 0.5 µM
Baseline: control
Quantity: remaining activity
C[C@@H](N)[C@H]1CC[C@H](C(=O)Nc2ccncc2)CC1: 100%
CNc1cc2c(Nc3cccc(Br)c3)ncnc2cn1: 69.2%
CCN(CC)CCCCN1c2ccccc2Oc2ccc(Cl)cc21: 89.7%
O=C(O)/C=C/c1cc(Br)c(Br)c(Br)c1Br: 88.4%
CC(C)(C)c1nc2c3cc[nH]c(=O)c3c3cc(F)ccc3c2[nH]1: 34.6%
O=Nc1c(-c2c(O)[nH]c3ccccc23)[nH]c2ccccc12: 72.3%
CCCCc1c(-c2ccc(O)cc2)[nH]c2nccnc12: 58.6%
c1cc(-c2cnn3cc(-c4ccc(OCCN5CCCCC5)cc4)cnc23)ccn1: 15.9%
O=C1NC(=O)/C(=C/c2ccc3c(c2)OC(F)(F)O3)S1: 88.2%
O=c1c(-c2ccc(F)cc2)c(-c2ccncc2)[nH]n1-c1ccc(Cl)cc1: 50.2%
NC(=O)c1cccc(-c2cc(Nc3ccc(OC(F)(F)F)cc3)ncn2)c1: 89.3%
COc1cc2c(N3CCN(C(=O)Nc4ccc(OC(C)C)cc4)CC3)ncnc2cc1OCCCN1CCCCC1: 110%
N#C/C(=C(/N)SC1C=CC=CC1)c1cccc(C(O)c2ccncc2)c1 (stereo not shown): 83.7%

Sample 4
SMILES: CC1=C(C#N)[C@@H](c2ccc3[nH]nc(C)c3c2)C(C#N)=C(c2ccc(Cl)cc2)N1
Method: competition with immobilised ligand
Tested at: 1 µM
Quantity: remaining binding
Serine/threonine-protein kinase ICK (CILK1, Homo sapiens, UniProt Q9UPZ9); binding: 76.2%
Serine/threonine-protein kinase 3 (STK3, Homo sapiens, UniProt Q13188); cell-free assay: 100%
Phosphatidylinositol 4-phosphate 3-kinase C2 domain-containing subunit beta (PIK3C2B, Homo sapiens, UniProt O00750); cell-free assay: 100%
Serine/threonine-protein kinase LATS2 (LATS2, Homo sapiens, UniProt Q9NRM7); cell-free assay: 100%
Serine/threonine-protein kinase Sgk3 (SGK3, Homo sapiens, UniProt Q96BR1); cell-free assay: 84.5%
Tyrosine-protein kinase ABL1, phosphorylated (ABL1, Homo sapiens, UniProt P00519, M351T); cell-free assay: 94.6%
TRAF2 and NCK-interacting protein kinase (TNIK, Homo sapiens, UniProt Q9UKE5); cell-free assay: 100%
Serine/threonine-protein kinase 38 (STK38, Homo sapiens, UniProt Q15208); cell-free assay: 92.3%
Ephrin type-B receptor 1 (EPHB1, Homo sapiens, UniProt P54762); cell-free assay: 100%
Rho-associated protein kinase 1 (ROCK1, Homo sapiens, UniProt Q13464); cell-free assay: 68.5%
Serine/threonine-protein kinase Nek10 (NEK10, Homo sapiens, UniProt Q6ZWH5); cell-free assay: 59.6%
Mast/stem cell growth factor receptor Kit (KIT, Homo sapiens, UniProt P10721, D816V); cell-free assay: 100%
Serine/threonine-protein kinase PAK 2 (PAK2, Homo sapiens, UniProt Q13177); cell-free assay: 100%
Fibroblast growth factor receptor 4 (FGFR4, Homo sapiens, UniProt P22455); cell-free assay: 100%
Ribosomal protein S6 kinase alpha-4, C-terminal kinase domain (RPS6KA4, Homo sapiens, UniProt O75676); cell-free assay: 100%
Mast/stem cell growth factor receptor Kit (KIT, Homo sapiens, UniProt P10721, V559D/V654A); cell-free assay: 100%
Dual specificity protein kinase CLK4 (CLK4, Homo sapiens, UniProt Q9HAZ1); cell-free assay: 100%

Repeated from above (sample 3):
N#C/C(=C(/N)SC1C=CC=CC1)c1cccc(C(O)c2ccncc2)c1 (stereo not shown): 83.7%
O=C1NC(=O)/C(=C/c2ccc3c(c2)OC(F)(F)O3)S1: 88.2%
c1cc(-c2cnn3cc(-c4ccc(OCCN5CCCCC5)cc4)cnc23)ccn1: 15.9%
CNc1cc2c(Nc3cccc(Br)c3)ncnc2cn1: 69.2%
CCN(CC)CCCCN1c2ccccc2Oc2ccc(Cl)cc21: 89.7%
CCCCc1c(-c2ccc(O)cc2)[nH]c2nccnc12: 58.6%
